# Experimental data pooled from the literature.
# Protocols differ between the studies behind these lines. ± gives the spread as reported.
Compound,test,system,setting,scale,endpoint,value
O=C(Cc1ccc(-c2ccc(OCCN3CCOCC3)cc2)cn1)NCc1ccc(F)cc1,,ICR mouse,"intravenous, 2 mg/kg",,AUC(0-t),840 ± 110 ng·h/mL
COc1ccc(/C=C/C2=[N+]3C(=C(COC(C)=O)c4c(C)cc(/C=C/c5ccc(OC)cc5)n4[B-]3(F)F)C(C)=C2)cc1,,acetonitrile,room temperature,,luminescence quantum yield,15 ± 2%
OCc1cn(Cc2ccc(-c3noc(-c4ccc(OCC[18F])c(C(F)(F)F)c4)n3)cc2)nn1,,"rat, pancreas","intravenous, 5 min",,tracer uptake,1.96 %ID/g
CC(=O)N[C@H](CC(=O)O)C(=O)N[C@H](Cc1c[nH]c2ccccc12)C(=O)N[C@H](Cc1ccccc1)C(=O)N[C@H](CCCCN)C(=O)N[C@H](C)C(=O)N[C@H](Cc1ccccc1)C(=O)N[C@H](Cc1ccc(O)cc1)C(=O)N[C@H](CC(=O)O)C(=O)N[C@H](CCCCN)C(=O)N[C@@H](C(=O)N[C@H](C)C(=O)N[C@H](CCC(=O)O)C(=O)N[C@H](CCCCN)C(=O)N[C@H](Cc1ccccc1)C(=O)N[C@H](CCCCN)C(=O)N[C@H](CCC(=O)O)C(=O)N[C@H](C)C(=O)N[C@H](Cc1ccccc1)C(N)=O)C(C)C,,"statin-treated high-risk CHD men, plasma","oral, 300 mg daily, day 1, 0 to 2 h, mean, undetectable set to 0",,Cmax,4.43 ng/mL
NC(=O)c1ccc(C(=O)NOCc2ccc(Sc3cccc(Cl)c3)c(C(F)(F)F)c2)cc1,,"male ICR mouse, plasma","intravenous, 10 mg/kg",,half-life,16.8 min
CCCC[C@@H]1NC(=O)[C@@H](NC(=O)[C@H](CCC(=O)O)NC(=O)CNC(=O)CN2CCN(CC(=O)O)CCN(CC(=O)O)CCN(CC(=O)O)CC2)CCCCNC(=O)C[C@@H](C(N)=O)NC(=O)[C@H](C(C)C)NC(=O)[C@@H]2CCCN2C(=O)[C@H](CCCNC(=N)N)NC(=O)CNC(=O)[C@H](Cc2c[nH]c3ccccc23)NC(=O)[C@H](CCCNC(=N)N)NC(=O)[C@@H](Cc2ccccc2)NC(=O)[C@H](Cc2c[nH]cn2)NC(=O)[C@H](CCC(=O)O)NC1=O [gallium-67 labelled],,"C57 mice, B16/F1 flank melanoma, intestine","intravenous, 0.037 MBq/mouse, 0.5 h",,intestine uptake,2.76 ± 1.34 %ID
Brc1ccc(Nc2nc(NN=Cc3c[nH]c4ccccc34)nc(N3CCOCC3)n2)cc1,,rat liver microsomes,in vivo extrapolated,,CLint,14.9 mL/min
N=C(N)NCCC[C@@H]1NC(=O)[C@H](Cc2c[nH]c3ccccc23)NC(=O)[C@@H](CC2CCCCC2)NC(=O)[C@@H]2CCCN2C(=O)[C@@H](NC(=O)CCc2ccccc2)CCCNC1=O,two-compartment model,"C57BL/6J mice, brain","intraperitoneal, 1 mg/kg",,alpha rate constant,3.45 h⁻¹
C=C(c1cc(F)c(C(=O)O)c(F)c1)c1cc2c(cc1C)C(C)(C)CCC2(C)C,,"Sprague-Dawley rat, male, plasma","oral, 100 mg/kg, 3 h, sesame oil vehicle",,HDL level,84 ± 13.6 mg/dL
CCC/C(=C\C1=C(C(F)(F)F)C(=O)c2ccccc2C1=O)C(=O)N(CC)CC,,human plasma,"1 µM, 37 °C",,t1/2,42 min
C=CC(=O)Nc1cc(Nc2nccc(-c3cn(C4CC4)c4ccccc34)n2)c(OC)cc1NC,radiolabelled metabolite profiling,"human male, plasma","oral, 110 mg, 24 h",,plasma concentration,10.5 ng/g
CCC(=O)N[C@@H](C)C(=O)OCC(=O)N[C@@H](C)C(=O)O,,water,"pH 8, 50 °C",,depolymerization half-life,3.43 h
Oc1ccc2ccccc2c1/N=N/c1ccc(/N=N/c2ccccc2)cc1,,extracted rat blood QC samples,"0.5 µg/L, 12 h, room temperature, short-term stability",,measured concentration,0.519 µg/L
CC[C@H](C)[C@H](N)C(=O)N[C@@H](CC(C)C)C(=O)N1CCC[C@H]1C(=O)N[C@@H](Cc1c[nH]c2ccccc12)C(=O)N[C@@H](CCCCN)C(=O)N[C@@H](Cc1c[nH]c2ccccc12)C(=O)N1CCC[C@H]1C(=O)N[C@@H](Cc1c[nH]c2ccccc12)C(=O)N[C@@H](Cc1c[nH]c2ccccc12)C(=O)N1CCC[C@H]1C(=O)N[C@@H](Cc1c[nH]c2ccccc12)C(=O)N[C@@H](CCCNC(=N)N)C(=O)N[C@@H](CCCNC(=N)N)C(N)=O,fluorescence spectroscopy,DMPC SUVs,"lipid/peptide 50:1, excitation 295 nm, together with: lipid 726 µM",,Trp emission maximum,353 nm
COc1cc(CNC(=O)CCCC/C=C/C(C)C)ccc1N,metabolic stability,"C57BL/6 mouse, liver microsomes","2 µM, 2 h",,compound remaining,0.1%
O=C([O-])c1cccc(CN(CCN(Cc2cn(Cc3ccccc3)nn2)Cc2cccc(C(=O)[O-])n2)Cc2cn(Cc3ccccc3)nn2)n1.[111In+3],,mouse serum,"24 h, 25 °C, together with: 111In",,radiometal bound to chelator,65%
Cc1cc2c(cc1C1(c3ncc(C(=O)O)cn3)CC1)C(C)(C)CCC2(C)C,,"Sprague-Dawley rat, male","oral, 100 mg/kg, 24 h, sesame oil vehicle",,blood cholesterol,49 ± 5.7 mg/dL
CC(C)(O)c1ncc([S@](N)(=O)=NC(=O)Nc2c3c(cc4c2CCC4)CCC3)s1,,healthy humans,"oral, dose not given, 14 days, study all active",,number of TEAEs,119
C[C@]12CC[C@@H]3c4ccc(OCC(=O)N[C@@H](CCCCNC(=O)CN5CCN(CC(=O)[O-])CCN(CC(=O)[O-])CCN(CC(=O)[O-])CC5)C(=O)O)cc4CC[C@H]3[C@@H]1CCC2=O.[68Ga+3],,"female nude mice, MCF7 xenograft, blood","dose not given, 2.5 h post-injection",,radioactivity uptake,0.3 %ID/g
CC12N3Cc4c(c(OCCCS(=O)(=O)[O-])c5ccccc5c4OCCCS(=O)(=O)[O-])CN1C(=O)N1Cc4c(c(OCCCS(=O)(=O)[O-])c5ccccc5c4OCCCS(=O)(=O)[O-])CN(C3=O)C12C.[Na+].[Na+].[Na+].[Na+] (stereo not drawn),,,"pD 7.4, together with: camptothecin",,phase solubility slope,0.54 ± 0.032
C=C(c1ncc(C(=O)O)cn1)c1cc2c(cc1C)C(C)(C)CCC2(C)C,,"Sprague-Dawley rat, male","oral, 100 mg/kg, 24 h, sesame oil vehicle",,blood triglycerides,193 ± 77.3 mg/dL
NCCCC[C@H](NC(=O)[C@@H]1CCCN1C(=O)[C@@H]1CSSC[C@H](NC(=O)CNC(=O)CNC(=O)CN)C(=O)N[C@@H](Cc2ccc(O)cc2)C(=O)N[C@@H](Cc2ccccc2)C(=O)N[C@@H](CCC(N)=O)C(=O)N[C@@H](CC(N)=O)C(=O)N1)C(=O)NCC(N)=O,,male Sprague Dawley rats,"iv, dose not given, single dose",,NOEL,5 µg/kg
C=C(C)C(=O)Nc1ccc(-c2c(-c3ccc(Oc4nccc(C)n4)cc3)c3c(N)ncnc3n2C)cc1,,"cynomolgus monkey, plasma","intravenous, dose not given",,half-life,84 min
CCC/C(=C\C1=C(F)C(=O)c2ccccc2C1=O)C(=O)N(CC)CC,,human plasma,"1 µM, 37 °C",,t1/2,9900 min
N=C(N)NCCC[C@@H]1NC(=O)[C@H](CCCCNC(=O)CC[C@H](NC(=O)CN2CCN(CC(=O)O)CCN(CC(=O)O)CCN(CC(=O)O)CC2)C(=O)NCCCC[C@@H]2NC(=O)[C@@H](Cc3ccccc3)NC(=O)[C@H](CC(=O)O)NC(=O)CNC(=O)[C@H](CCCNC(=N)N)NC2=O)NC(=O)[C@@H](Cc2ccccc2)NC(=O)[C@H](CC(=O)O)NC(=O)CNC1=O [gallium-68 labelled],,"female BALB/c nude mice, SK-RC-52 xenograft, tumour","0.5 µg, 2 h post injection, together with: excess unlabelled DOTA-E-[c(RGDfK)]2 50 µg",,radioactivity concentration,decreased
CC(C)NC(=O)N1CC=C(c2cc3c(Nc4ccc5scnc5c4)ncnc3s2)C1,,"BALB/c mouse, plasma","oral, 10 mg/kg, 30 min",,concentration,79.5 ng/mL
NC[C@@H](C(=O)Nc1ccc(-c2cn[nH]c2)cc1)c1ccccc1,"OECD 405, refers to: Chemosis",New Zealand White rabbit,"topical, 0.1 %, 73 h, day 4",direction not given,ocular irritation score,0
Cc1ccc(-c2ccc(-c3cc4sccc4o3)cn2)nc1,TCSPC,benzene,,,radiative decay rate constant,0.69 ns⁻¹
CCc1nc(N)nc(N)c1C#CC(C)c1cc(-c2cc(C)nc(C)c2)ccc1Cl (stereo not drawn),,"human hepatocytes, pooled",1 µM,,scaled intrinsic clearance,~19 mL/min/kg
CC(C)(Sc1cc[n+]([O-])cc1-c1ccc(C#N)c2ccccc12)C(=O)OC1OC(C(=O)O)C(O)C(O)C1O (stereo not drawn),,plasma,"oral, 15 mg, normal renal function, fasted",,terminal half-life,14.4 h
C[C@H](NC(=O)[C@H](CCCNC(=N)N)N(C)C(=O)[C@@H]1CCCN1C(=O)[C@H](CCCNC(=N)N)NC(=O)CNC(=O)c1ccc2c(c1)C1(OC2=O)c2ccc(O)cc2Oc2cc(O)ccc21)C(=O)N[C@@H](Cc1ccccc1)C(=O)N[C@H](C(=O)N[C@@H](Cc1ccccc1)C(=O)N(C)CC(=O)N[C@@H](CCC(=O)O)C(=O)NCC(N)=O)[C@@H](C)O,,HeLa cytosolic lysate,"1 µM, 37 °C",,t1/2,84 min
[11CH3]c1ccc2nc(C3CCC3)n(-c3ccc4[nH]ncc4c3)c2n1,,"standard human adult, lungs",,,absorbed radiation dose,4.1 µSv/MBq
Cc1ccc(OCC(=O)N(Cc2cccs2)c2ccn[nH]2)cc1,,"male Göttingen minipig, liver microsomes","10 µM, 60 min, together with: NADPH",,remaining compound,~0.89%
COc1cc(OC)cc(C2=C3C(C)=C(I)C(/C=C/c4c[nH]c5ccccc45)=[N+]3[B-](F)(F)n3c(/C=C/c4c[nH]c5ccccc45)c(I)c(C)c32)c1,,DMSO,,,log molar absorptivity,4.39 M⁻¹ cm⁻¹
C=C1C[C@@]23CC[C@H]4[C@@](C)(CCC[C@@]4(C)C(=O)O[C@@H]4O[C@H](CO)[C@@H](O)[C@H](O)[C@H]4O)[C@@H]2CC[C@]1(O[C@@H]1O[C@H](CO[C@H]2O[C@H](CO)[C@@H](O)[C@H](O)[C@H]2O)[C@@H](O)[C@H](O)[C@H]1O[C@@H]1O[C@H](CO)[C@@H](O)[C@H](O)[C@H]1O)C3,H&E staining,"C57BL/6N mouse, high-fat diet","drinking water, 0.2 g/L, 16 weeks",,liver histology,no effect
C1=CCCC=CCC1.F[P-](F)(F)(F)(F)F.[Pt+][c]1ccccc1P(=Nc1ccccc1)(c1ccccc1)c1ccccc1,,rat,20 µM,,absorption rate constant,2.12 h⁻¹
C[N+](C)(Cc1cn(CCOCCOCCO[C@@H]2O[C@H](CO)[C@@H](O)[C@H](O)[C@H]2O)nn1)C[B-](F)(F)F,"chemical stability, NMR",aqueous buffer,"2 mg/mL, pH 7.5",,half-life,57600 min
Cn1c(=O)oc2ccc(-c3ccc(CC(C#N)NC(=O)C4CNCCCO4)c(F)c3)cc21 (stereo not drawn),refers to: bacterial test positive,human volunteers,"oral, dose not given",,treatment-emergent adverse event incidence,7.4%
CC[C@H](C)[C@H](NC(=O)[C@@H](NC(=O)[C@H](Cc1ccccc1)NC(=O)[C@@H](N)CC(=O)O)C(C)C)C(=O)N[C@@H](Cc1ccccc1)C(=O)N[C@@H](CC(C)C)C(=O)N[C@@H](CC(=O)O)C(=O)N[C@H](C(=O)N[C@@H](CCCCN)C(=O)N[C@@H](Cc1c[nH]cn1)C(=O)N[C@@H](Cc1ccccc1)C(=O)N[C@@H](CO)C(=O)N1CCC[C@H]1C(=O)N[C@@H](CCC(=O)O)C(=O)N[C@@H](CC(=O)O)C(=O)N[C@@H](CC(C)C)C(=O)N[C@H](C(=O)N[C@H](C(=O)N[C@@H](CCCCN)C(=O)O)C(C)C)[C@@H](C)O)C(C)C,circular dichroism,5 mM phosphate,"28 µM, pH 7",,CD minimum wavelength,~200 nm
NS(=O)(=O)c1ccc(N2N=C(C(F)(F)F)CC2c2ccc(F)cc2F)cc1 (stereo not drawn),,"Beagle dog, male, arthritis model, plasma","oral, 4 mg/kg, second dose day 12, day 14",,plasma concentration,658 ± 496 ng/mL
OCc1[nH]nc2c1N=C(c1ccccc1Cl)c1cnc(N3CCOCC3)cc1N2,,"human male, urine","oral, 10 mg, 0-72 h",baseline: dose,urinary excretion,0.46%
C#CCOc1ccc(/C=C2\SC(=O)N(CC(=O)NCc3ccccc3)C2=O)cc1,inverse Kirkwood-Buff integrals,binary solvent mixture,"298.15 K, mole fraction x1 0.30",,"Kirkwood-Buff integral G1,3",-270 cm³/mol

# Excerpt of the above:
Compound,test,system,setting,scale,endpoint,value
C=C(c1ncc(C(=O)O)cn1)c1cc2c(cc1C)C(C)(C)CCC2(C)C,,"Sprague-Dawley rat, male","oral, 100 mg/kg, 24 h, sesame oil vehicle",,blood triglycerides,193 ± 77.3 mg/dL
CC[C@H](C)[C@H](N)C(=O)N[C@@H](CC(C)C)C(=O)N1CCC[C@H]1C(=O)N[C@@H](Cc1c[nH]c2ccccc12)C(=O)N[C@@H](CCCCN)C(=O)N[C@@H](Cc1c[nH]c2ccccc12)C(=O)N1CCC[C@H]1C(=O)N[C@@H](Cc1c[nH]c2ccccc12)C(=O)N[C@@H](Cc1c[nH]c2ccccc12)C(=O)N1CCC[C@H]1C(=O)N[C@@H](Cc1c[nH]c2ccccc12)C(=O)N[C@@H](CCCNC(=N)N)C(=O)N[C@@H](CCCNC(=N)N)C(N)=O,fluorescence spectroscopy,DMPC SUVs,"lipid/peptide 50:1, excitation 295 nm, together with: lipid 726 µM",,Trp emission maximum,353 nm
Oc1ccc2ccccc2c1/N=N/c1ccc(/N=N/c2ccccc2)cc1,,extracted rat blood QC samples,"0.5 µg/L, 12 h, room temperature, short-term stability",,measured concentration,0.519 µg/L
NC[C@@H](C(=O)Nc1ccc(-c2cn[nH]c2)cc1)c1ccccc1,"OECD 405, refers to: Chemosis",New Zealand White rabbit,"topical, 0.1 %, 73 h, day 4",direction not given,ocular irritation score,0
Cc1ccc(OCC(=O)N(Cc2cccs2)c2ccn[nH]2)cc1,,"male Göttingen minipig, liver microsomes","10 µM, 60 min, together with: NADPH",,remaining compound,~0.89%
C=C(C)C(=O)Nc1ccc(-c2c(-c3ccc(Oc4nccc(C)n4)cc3)c3c(N)ncnc3n2C)cc1,,"cynomolgus monkey, plasma","intravenous, dose not given",,half-life,84 min
